Results of several laboratories.
Compare with care: the assays were run in different laboratories. Several values in a cell are separate wells, animals, samples, runs or records. Numbers after ± are the reported error.
MT-CYB/UQCRFS1: MT-CYB/UQCRFS1 (Homo sapiens, UniProt P00156+P47985)

`C=CC(=O)N1CCC(COCC(=O)N2CCN(c3nc(-c4cnc(N)nc4C(F)F)nc(N4CCOC[C@@H]4C)n3)CC2)CC1` has a remaining binding of 65% (TRPM6 (Homo sapiens, UniProt Q9BX84); KINOMEscan; 1 µM).
`NC(=O)NOCCCCCCCCCCCC[P+](c1ccccc1)(c1ccccc1)c1ccccc1.O=C([O-])C(F)(F)F`: “oxygen consumption rate” 35.9 ± 11.5% (MT-CYB/UQCRFS1; complex III-dependent respiration, Seahorse XF96; HCT-116; 3 µM, 24 h; reference: control).
Under “normalised MST signal”, `O=S(=O)(O)C1CCNCC1` is recorded as -0.0167 (SLC6A6 (Homo sapiens, UniProt P31641, G62A); binding, microscale thermophoresis; 7.81 µM, room temperature, together with: 50 nM labelled protein; higher = more binding).
The activation of `CN1CCN(c2cc(-c3ccncc3)c(-c3ccc4ccccc4c3)nn2)CC1` is reported as -1.3% (BDKRB2 (Homo sapiens, UniProt P30411); agonist, FLIPR; 12.5 µM).
For `CC1=C(/C=C/C(C)=C/C=C/C(C)=C/C=O)C(C)(C)CCC1`, the relative koff was 1.56 ± 0.02 (Rhodopsin (RHO, Bos taurus, UniProt P02699, I189V); retinal release, Trp FRET; lipid bicelles; 28 °C, I189V mutant; reference: wild-type rhodopsin).
`CC[C@@H]1[C@H](F)C(=O)N[C@@H]1COc1nccc2cc(C(N)=O)c(OC)cc12` gave an inhibition of -4.9% (STE20-related kinase adapter protein beta (Homo sapiens, UniProt Q9C0K7); ATP probe binding, KiNativ profiling, measured: Lys1 probe site; THP-1 cell lysate; 0.01 mM).
`O=C(O)c1cn[nH]c1` gave an inhibition of 44.7% (THP-1; pyroptotic LDH release; 2 µM, 40 min, together with: LPS then nigericin).
Under “oxygen consumption rate”, `NC(=O)NOCCCCCCCCCC[P+](c1ccccc1)(c1ccccc1)c1ccccc1.O=C([O-])C(F)(F)F` is recorded as 101 ± 3.3% (MT-CYB/UQCRFS1; complex III-dependent respiration, Seahorse XF96; HCT-116; 0.1 µM, 24 h; reference: control).
The Emax of `CC(C)C[C@H](NC(=O)[C@@H](N)[C@@H](C)O)C(=O)N[C@@H](CCC(N)=O)C(=O)N1CCC[C@H]1C(=O)N1CCC[C@H]1C(=O)N[C@@H](C)C(=O)N[C@@H](CO)C(=O)N[C@@H](CO)C(=O)N[C@@H](CCCNC(=N)N)C(=O)N[C@H](CCCNC(=N)N)C(=O)N[C@@H](CCCNC(=N)N)C(=O)N[C@@H](Cc1c[nH]cn1)C(=O)N[C@@H](Cc1ccccc1)C(=O)N[C@@H](Cc1c[nH]cn1)C(=O)N[C@@H](Cc1c[nH]cn1)C(=O)N[C@@H](C)C(=O)N[C@@H](CC(C)C)C(=O)N1CCC[C@H]1C(=O)N1CCC[C@H]1C(=O)N[C@@H](C)C(=O)N[C@@H](CCCCNC(=N)N)C(=O)O` is reported as 91.6 % basal (C3AR1 (Homo sapiens, UniProt Q16581); β-arrestin recruitment, agonist, Tango; HTLA transfected; overnight).
The highest SUVmax of `CCCC[C@H]1C(=O)N(C)[C@@H](CCCC)C(=O)N[C@@H](CCCCNC(=O)CN2CCN(CC(=O)O)CCN(CC(=O)O)CC2)C(=O)N[C@H](C(=O)NCC(N)=O)CSCC(=O)N[C@@H](Cc2ccc(O)cc2)C(=O)N(C)[C@@H](C)C(=O)N[C@@H](CC(N)=O)C(=O)N2CCC[C@H]2C(=O)N[C@@H](Cc2c[nH]cn2)C(=O)N[C@@H](CCC(=O)O)C(=O)N2C[C@H](O)C[C@H]2C(=O)N[C@@H](Cc2c[nH]c3ccccc23)C(=O)N[C@@H](CO)C(=O)N[C@@H](Cc2cn(CC(=O)O)c3ccccc23)C(=O)N1C` [gallium-68 labelled] is reported as 12.4 (CD274 (Homo sapiens, UniProt Q9NZQ7); PET/CT; NSCLC patients PD-L1 TPS ≥50%).
With `O=C(Nc1cccc2c(=O)cc(-c3nnn[nH]3)oc12)c1ccc(OCCCCc2ccccc2)cc1` the Hill coefficient was 0.74 (LRRC8A/LRRC8C (Homo sapiens, UniProt Q8IWT6+Q8TDW0); ion current, inhibitor, whole-cell patch clamp; HCT116 LRRC8 knockout, transfected; +100 mV, LRRC8A/LRRC8C heteromer).
With `Cc1cc(=O)[nH]c(SCc2cccc3ccccc23)n1` the Hill slope was -2.6 (Protein lin-28 homolog A (Mus musculus, UniProt Q8K3Y3)).
`Cc1cccc(N(O)N=Nc2ccc(S(=O)(=O)Nc3nccs3)cc2)c1` gave an inhibition of 10 ± 0.041% (α-glucosidase, rat intestine; enzyme activity; 60 µg/mL, together with: 4-nitrophenyl α-D-glucopyranoside).
For `CC(=C/C(=O)O)/C=C/C=C(\C)C1C=C2C(C)(C)CCCC2(C)O1` (stereo not shown), “plasma membrane localization” read 0.66 (Rhodopsin (RHO, Homo sapiens, UniProt P08100, E181K); immunostaining, measured: opsin; COS-7 transfected; 1.00 µM, unit not given; reference: surface over total stained cells).
`O=c1nc(SCc2cc(F)cc(C(F)(F)F)c2)nc(SCc2ccc3sccc3c2)[nH]1` — result for “ATP hydrolysis rate”: 2.58 µM/min and 2.33 µM/min (TOP2A (Homo sapiens, UniProt P11388); ATPase activity; 1.95 µM, together with: ATP 0.75 mM).
With `CCCCC(CC)CNC(=N)NC(=N)NCCCCCCNC(=N)NC(=N)NCC(CC)CCCC` (stereo not shown) the inhibition was -36.8% (THP-1; pyroptotic LDH release; 2 µM, 40 min, together with: LPS then nigericin).
`Nc1ncnc2c1ncn2[C@@H]1O[C@H](COP(=O)(O)CP(=O)(O)OP(=O)(O)O)[C@@H](O)[C@H]1O` gave a calcium influx of 31.9% and 38.5% and 24.8% and 24.3% (P2X purinoceptor 1 (P2RX1, Homo sapiens, UniProt P51575, D97A); calcium influx; 100 nM; reference: ionomycin response).
With `Cc1cccc(N2CC(C(=O)O)CC2=O)c1` (stereo not shown) the fold enrichment was 1.08 (YTHDF2 (Homo sapiens, UniProt Q9Y5A9); binding, affinity selection mass spectrometry; reference: other proteins in batch).
`O=C1C=Nc2ccc(Br)cc21`: “share of total products” 43.9% (Dehaloperoxidase B, ferric (Amphitrite ornata, UniProt Q9NAV7); product, HPLC; together with: 5-bromoindole 500 µM, H2O2 250 µM).
For `Cc1ccc(C(=O)Nc2ccc3ccccc3c2)o1`, “peak current ratio Ip2/Ip1” read 2.5 and 2.26 and 2.25 and 2.23 and 1.91 and 2.1 and 2.46 (Otop1 (Mus musculus, UniProt Q80VM9); proton current, whole-cell patch clamp; 10 µM, pH 6).
Under “covalent adduct formation”, `CCCC(C)N1CCC(N(Cc2cccc(NC(=O)CCl)c2)C(=O)Nc2cccc(C(F)(F)F)c2)CC1` (stereo not shown) is recorded as 10% (DCN1-like protein 1 (Homo sapiens, UniProt Q96GG9); covalent binder, LC-TOF mass spectrometry; 60 µM, overnight, 4 °C, together with: DCN1-like protein 1 30 µM).
Under “binding enthalpy (ΔH)”, `Nc1nc2c(ncn2[C@@H]2O[C@@H]3COP(=O)(O)O[C@H]4[C@@H](O)[C@H](n5cnc6c(=O)[nH]c(N)nc65)O[C@@H]4COP(=O)(O)O[C@H]3[C@H]2O)c(=O)[nH]1` is recorded as 2 kcal/mol (Cell cycle histidine kinase CckA, CA domain (Caulobacter vibrioides, UniProt Q9X688); isothermal titration calorimetry; Caulobacter crescentus; concentration not given, 12 °C, together with: AMPPNP 5 mM).
`NC(=O)NOCCCCCCCCCCCCCCCC[P+](c1ccccc1)(c1ccccc1)c1ccccc1.O=C([O-])C(F)(F)F` — result for “oxygen consumption rate”: 63.1% (MT-CYB/UQCRFS1; complex III-dependent respiration, Seahorse XF96; HCT-116; 3 µM, 24 h; reference: control).
`Cc1ccc(N(O)N=Nc2ccc(S(=O)(=O)Nc3cc(C)on3)cc2)cc1` gave an inhibition of 12.5 ± 0.59% (α-glucosidase, rat intestine; enzyme activity; 20 µg/mL, together with: 4-nitrophenyl α-D-glucopyranoside).
For `[Cl-].[K+]`, “initial reaction velocity” read 0.136 µM/s and 0.163 µM/s and 0.171 µM/s (GUK1 (Homo sapiens, UniProt Q16774); enzyme activity, NADH-coupled; 150 mM, enzyme 7.5 nM).
The potency increase of `c1ccc(C(NCc2cccnc2)(c2ccccc2)c2ccccc2)cc1` is reported as about 120 fold (KCNQ1 (Homo sapiens, UniProt P51787, E160R/R231E); reference: wild type).
The enzyme activity of `O=C(COP(=O)(O)O)[C@@H](O)[C@H](O)[C@H](O)COP(=O)(O)O` is reported as 39.2 and 39.7 and 31.2 (Phosphoglycerate mutase 1 (Homo sapiens, UniProt P18669); 0.07812 mM, unit not given; reference: activity at 10 mM set to 100).
With `CCS(=O)(=O)N1CC(CC#N)(n2cc(-c3ncnc4[nH]ccc34)cn2)C1` the Stokes shift was 54 nm (ORM1 (Homo sapiens, UniProt P02763); 3D fluorescence spectroscopy; 4.8 µM).

Excerpt of the above:
With `O=C(Nc1cccc2c(=O)cc(-c3nnn[nH]3)oc12)c1ccc(OCCCCc2ccccc2)cc1` the Hill coefficient was 0.74 (LRRC8A/LRRC8C (Homo sapiens, UniProt Q8IWT6+Q8TDW0); ion current, inhibitor, whole-cell patch clamp; HCT116 LRRC8 knockout, transfected; +100 mV, LRRC8A/LRRC8C heteromer).
With `Cc1cc(=O)[nH]c(SCc2cccc3ccccc23)n1` the Hill slope was -2.6 (Protein lin-28 homolog A (Mus musculus, UniProt Q8K3Y3)).
`Cc1cccc(N(O)N=Nc2ccc(S(=O)(=O)Nc3nccs3)cc2)c1` gave an inhibition of 10 ± 0.041% (α-glucosidase, rat intestine; enzyme activity; 60 µg/mL, together with: 4-nitrophenyl α-D-glucopyranoside).
For `CC(=C/C(=O)O)/C=C/C=C(\C)C1C=C2C(C)(C)CCCC2(C)O1` (stereo not shown), “plasma membrane localization” read 0.66 (Rhodopsin (RHO, Homo sapiens, UniProt P08100, E181K); immunostaining, measured: opsin; COS-7 transfected; 1.00 µM, unit not given; reference: surface over total stained cells).
